Results pooled from the literature.
Each numbered part is a random draw from the data of one study; scales do not carry over between parts. Changes are numbered by the printed parent chain.

Sample 1 — target: ATF5, bZIP domain (human); method: DHFR protein complementation; matrix: yeast; relative to: wild-type JUN-FOS pair; reading: higher = stronger binding
Notes: single substitutions, most at no-binding floor
Parent: JUN, bZIP domain (human); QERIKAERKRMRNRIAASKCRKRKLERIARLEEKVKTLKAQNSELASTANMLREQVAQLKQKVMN; partner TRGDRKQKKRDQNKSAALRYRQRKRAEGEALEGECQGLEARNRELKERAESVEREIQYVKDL
`L52W` has a binding fitness of -1.49 natural log.
`N42F` has a binding fitness of -1.54 natural log.
With `T37G` the binding fitness was -1.31 natural log.
With `V56A` the binding fitness was -1.32 natural log.
`T37K` has a binding fitness of -1.35 natural log.
The binding fitness of `E54P` is reported as -1.34 natural log.
With `Q41L` the binding fitness was -1.58 natural log.
With `L59H` the binding fitness was -1.54 natural log.
With `A29R` the binding fitness was -1.47 natural log.
`A40V` gave a binding fitness of -1.41 natural log.
With `L38R` the binding fitness was -1.52 natural log.
For `E44Y`, the binding fitness was -1.39 natural log.
For `T37D`, the binding fitness was -1.48 natural log.
The binding fitness of `S43T` is reported as -1.38 natural log.
The binding fitness of `A57I` is reported as -1.16 natural log.
With `A29D` the binding fitness was -1.5 natural log.
With `E44G` the binding fitness was -1.52 natural log.
The binding fitness of `L52G` is reported as -1.52 natural log.
With `A57H` the binding fitness was -1.54 natural log.
With `N42V` the binding fitness was -1.4 natural log.
`L31A` gave a binding fitness of -1.42 natural log.
For `A46Q`, the binding fitness was -1.15 natural log.
With `V56Y` the binding fitness was -1.51 natural log.
`E54T` gave a binding fitness of -1.3 natural log.

Sample 2 — target: CCNE2, cyclin fold, Cln2 fusion (human); method: yeast growth competition, sequencing; matrix: yeast; notes: weak parent motif; relative to: not given; reading: higher = stronger binding
Parent: PKMYT1 docking peptide (human); SFEPRNLLSLFED
`L8A`: “normalised enrichment score” 0.439.
`F11Q`: “normalised enrichment score” -0.428.
Under “normalised enrichment score”, `L7Q` is recorded as -0.776.
`D13M`: “normalised enrichment score” 0.677.
`P4R`: “normalised enrichment score” 0.51.
`P4L`: “normalised enrichment score” 0.173.
Under “normalised enrichment score”, `R5P` is recorded as -0.495.
For `F2H`, “normalised enrichment score” read -0.488.
For `F11T`, “normalised enrichment score” read -0.593.
For `N6H`, “normalised enrichment score” read -0.164.
Under “normalised enrichment score”, `N6T` is recorded as -0.0184.
For `L10G`, “normalised enrichment score” read -0.306.
`L7E` — result for “normalised enrichment score”: -0.139.
Under “normalised enrichment score”, `E12S` is recorded as -0.142.
`L10V`: “normalised enrichment score” 0.294.
`L10Y` — result for “normalised enrichment score”: -0.078.
`E12Q` — result for “normalised enrichment score”: 0.622.
`R5G`: “normalised enrichment score” 0.0492.

Sample 3 — method: RNA Bind-n-Seq; molecule type: RNA; matrix: in vitro; concentration: 365 nM; relative to: no-protein control; reading: higher = stronger binding
Target: RNA binding protein fox-1 homolog 2, RRM domain, GST-SBP tag (RBFOX2, Homo sapiens, UniProt O43251-10, residues 100-194)
Notes: natural RNA segment, single round, ends assumed
All sequences stand within: GGGAGUUCUACAGUCCGACGAUC … UGGAAUUCUCGGGUGCCAA
Residues (chain): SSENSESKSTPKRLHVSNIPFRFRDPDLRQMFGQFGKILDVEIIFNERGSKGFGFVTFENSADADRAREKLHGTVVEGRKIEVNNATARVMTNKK
For `GCGAAGAGAUCCCUGAAAAGCGGGAGAGGCUGUGUCUGCAGUGUGCAGACUGUGACCCUCGUGUUUGAGGAAAGCUGGUGUUUUCUGUGUUGGAACGCCACGGUUGCCAG`, “RBNS enrichment (R)” read 0.329.
`UCUUAGCAUCUCCUCUAGUAUUUUCCAUGUAUCAGGACAGAGGUGUCUUAUGUAGGGAGGGGGCAAGUAUGAAGUAAGGUAAUUAUAUACUACUCUCAUUCAGGAUUCUU` — result for “RBNS enrichment (R)”: 0.392.
`GCAAUCUCUAUUUCAUUAUCCUGUAAGGAAUAAAUAAGACAUUCAAUAUUGACCUAACUAACUUGAAUGUCUCAUAUGAUGAAUCAAUAAACUAUGUGCACAUAGCUUUG` — result for “RBNS enrichment (R)”: 0.331.
`UAAGGCUGCACGCCUCCAAUCCCCCAAAGGGUAGGAUCCUGGCUGGGUCCAGGGUUCCUCUGAUUUAUUUGGUUUUGUUGUGUUGUGUUGUGUUUUUCUUUUGGCUAAAC` — result for “RBNS enrichment (R)”: 0.415.
`GUAGCUGGGUAAUCAAAAAUGUUUAGUCAUUGAUUCAAUGUGAACGAUUACGGUCUUUAUGACCAAGAGUCUGAAAAUCUUUUUGUUAUGCUGUUUAGUAUUCGUUUGAU` — result for “RBNS enrichment (R)”: 0.328.
For `GCCUGAGGAGCCCAGAGCACUUGACUGAGCUUCCCGGAAACUGGCCCUAACCUGUCUGUCUCCGUGGAUGCAUCCUAACCCUAAGGAAAAUUCCCCAGGCUGUGAUCUAC`, “RBNS enrichment (R)” read 0.352.
Under “RBNS enrichment (R)”, `UAGCUGAUUGUUCCCACUUGCACCUCUCCACCUUUGGCACUAGAACUCCUGAGACACCACUUCUCAUGCUUCUCCCUCCCUACCAGCGGUCAAGGCUUUGGAGCCACUCU` is recorded as 0.501.
Under “RBNS enrichment (R)”, `UAGCAGGCCUUUGUAUGUGUGUACAUAUAUAUAUAUAUAACAAAACAUCAGCCUUGGGUGGUGUGUUCCUAUAUAAACUCCAAAGGGAAACACACCGACUGCCUCAGCAA` is recorded as 0.274.
Under “RBNS enrichment (R)”, `UCAGGACAGUGGUGGAGCUGGGUCUUGAACCCCAGUCUGCACCUAAAAAACUAAAGGAAAUGGAUUUUUUUUUUUUUUUUUGAGACGGAGACUCACUCUGUUGCCCAGAC` is recorded as 0.303.
`CUUAUCAGCUUCCUGUUUCUUCCCAUACUUGCAUACACCACUGCAAAAUGUCUUAAUGCAAAUUUUGUAUUUCUUACAGGCCUACAGAAAUUGAAAAUGACCAAAAUCAG` — result for “RBNS enrichment (R)”: 0.506.
Under “RBNS enrichment (R)”, `GUGGUGGUAGCCAUCCCACAUGGUGUCCAGAGGAAAGCUACGCGCAUUUAUACUGUCUGUUCUGUACAGUUCUCUCAGAUAAUGACAAUAGCUUGGGAUUUUUUUUUUUU` is recorded as 0.36.
`GGCAUGGAACGCAGUGCUCUUCACCGUCUGGCGAGUGCAUGCCAAGAGAGCUAGACAGCAGCAUUACCCACUCUGAAGUUUUCUACAAGAGAGUUGAGUGAAUCUGUUUA`: “RBNS enrichment (R)” 3.57.

Sample 4 — method: protein binding microarray; molecule type: double-stranded DNA, one strand shown; matrix: in vitro; concentration: not given; relative to: not given; reading: higher = stronger binding
Target: Histone acetyltransferase KAT6A, winged helix 2, GST fusion (KAT6A, Homo sapiens, UniProt Q92794, residues 85-181)
Notes: 8-mer, flanks averaged, mean of 2 arrays, mostly near background
Target sequence (chain): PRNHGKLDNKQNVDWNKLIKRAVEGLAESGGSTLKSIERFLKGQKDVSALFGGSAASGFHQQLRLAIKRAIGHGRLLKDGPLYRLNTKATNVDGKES
`GTAGTCTA` has an E-score of -0.145.
`AACAGTCA` gave an E-score of -0.173.
`AGTGCCGC` gave an E-score of -0.0391.
`AATAACTG` has an E-score of -0.053.
For `ACCTTCTG`, the E-score was 0.105.
The E-score of `CCGTAAAA` is reported as 0.122.
`ATCACGTG` gave an E-score of -0.125.
`AACATTGC` has an E-score of -0.216.
For `ACTGGTCC`, the E-score was -0.0769.
With `AAATGAAC` the E-score was -0.0869.
For `ACCACTCG`, the E-score was 0.148.
The E-score of `GCCGATAC` is reported as -0.126.
`AACGTATG` has an E-score of -0.0871.
For `GCTAGCCA`, the E-score was -0.0495.
`CCGCTTAG` has an E-score of -0.0812.
For `ACCATTCA`, the E-score was -0.0938.
The E-score of `AAAGATAG` is reported as -0.0898.
For `AGGGGTGG`, the E-score was -0.0516.
With `CTCATTAC` the E-score was -0.00857.
For `AAAGCATT`, the E-score was 0.0257.
With `AGTACCAT` the E-score was -0.109.
